Published values from different studies.
Each line is one published result; not all experiments were run side by side.
Target: Serine/threonine-protein kinase DCLK2 (DCLK2, Homo sapiens, UniProt Q8N568)
Sequence (Q8N568 1-766, as in one of the studies): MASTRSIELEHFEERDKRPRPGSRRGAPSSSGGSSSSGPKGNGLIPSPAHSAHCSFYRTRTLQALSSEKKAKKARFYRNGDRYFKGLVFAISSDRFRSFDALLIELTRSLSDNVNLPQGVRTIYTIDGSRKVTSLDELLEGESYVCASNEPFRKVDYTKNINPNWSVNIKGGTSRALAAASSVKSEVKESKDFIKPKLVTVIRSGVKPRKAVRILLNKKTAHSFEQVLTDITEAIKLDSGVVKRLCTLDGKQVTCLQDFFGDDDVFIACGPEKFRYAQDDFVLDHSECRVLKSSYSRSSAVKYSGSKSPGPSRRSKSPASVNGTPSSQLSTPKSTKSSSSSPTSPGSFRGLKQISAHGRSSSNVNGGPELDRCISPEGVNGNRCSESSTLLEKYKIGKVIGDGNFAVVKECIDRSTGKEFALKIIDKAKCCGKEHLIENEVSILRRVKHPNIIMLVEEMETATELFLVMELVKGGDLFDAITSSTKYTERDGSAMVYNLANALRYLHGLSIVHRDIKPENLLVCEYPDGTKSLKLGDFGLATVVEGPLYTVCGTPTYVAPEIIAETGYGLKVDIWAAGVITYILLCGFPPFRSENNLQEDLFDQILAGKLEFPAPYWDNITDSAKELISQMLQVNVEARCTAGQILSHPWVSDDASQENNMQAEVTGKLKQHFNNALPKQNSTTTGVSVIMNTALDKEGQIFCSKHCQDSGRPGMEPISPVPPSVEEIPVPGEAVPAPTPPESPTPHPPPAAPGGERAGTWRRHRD

SMILES = O=C(Cc1ccc(OCc2ccccc2)cc1)NC1(C(=O)O)CCN(C(=O)c2ccc(-c3cccc(Cl)c3)cc2)CC1; test = enzyme activity, inhibitor; conditions = 10 µM; measurement = activity vs control; value = 144%
SMILES = Nc1ncc(-c2cc(-c3cnn(CC(F)(F)F)c3)ncc2F)nc1C(=O)NC1CNCC(F)C1 (stereo not shown); test = enzyme activity; conditions = 1 µM; scale = baseline: DMSO control; measurement = remaining activity; value = 102%
SMILES = CN1CC[C@@H](COc2cnc(C#N)cc2-c2ccn3nc(NC(=O)C4CC4)cc3c2)C1; test = enzyme activity, inhibitor; conditions = 1 µM; measurement = inhibition; value = 6%
SMILES = NC(=O)C[C@H]1CCc2sc3ncnc(O[C@H]4CC[C@H](N5CCOCC5)CC4)c3c21; test = enzyme activity, inhibitor; conditions = 10 µM; measurement = inhibition; value = 12%
SMILES = CCN1CCN(Cc2ccc(C(=O)Nc3ccc(C)c(NCc4cnc5[nH]ccc5c4OC)c3)cc2C(F)(F)F)CC1; test = binding, competition with immobilised ligand; conditions = 1 µM; measurement = remaining binding; value = 100%
SMILES = CNC(=O)C[C@H](Cc1ccc(C#N)cc1)NC(=O)c1cc(-c2ccc(CN[C@H](C)c3ccc(C)cc3)o2)ccc1Cl; test = enzyme activity, inhibitor; conditions = 1 µM; measurement = activity vs control; value = 128%
SMILES = CC(C)=CC1OC(C)(C)C2C=C3C(=O)C(Cl)=CC(O)C3C3C(O)C4OC4C(=O)C132 (stereo not shown); test = cell-free assay, competition with immobilised ligand; conditions = 10 µM; measurement = remaining binding; value = 90%
SMILES = COc1c(OCCCN2CCOCC2)ccc2c1N=C(NC(=O)c1cnc(N)nc1)N1CCN=C21; test = kinase activity, inhibitor; conditions = 1 µM; scale = baseline: untreated control; measurement = remaining activity; value = 53%
SMILES = Cc1cccc(O[C@H]2CCC[C@@H](C(C)CNCc3ccncc3)C2)c1 (relative stereo); test = enzyme activity, inhibitor; conditions = 1 µM; measurement = inhibition; value = -1%
SMILES = C=CC(=O)Nc1cccc(-c2cnc3[nH]cc(C(=O)NC(C)(C)C)c3n2)c1; test = kinase activity; conditions = 0.1 µM; measurement = inhibition; value = 1%
SMILES = COc1ccc(O)cc1-c1c[nH]c2ncc(-c3cncc(C(=O)N(C)C)c3)cc12; test = binding, competition with immobilised ligand; conditions = 0.2 µM; measurement = inhibition; value = 0.97%
SMILES = COc1cc(-n2cc3cc(F)cc(C(N)=O)c3n2)cc(Cl)c1C1CC(O)(CCO)Cc2ccccc21 (stereo not shown); test = enzyme activity, inhibitor; conditions = 10 µM; measurement = inhibition; value = 0.43%
SMILES = COc1ccc(NC(=O)Nc2ccc3c(c2)C(=O)N(C(C)CO)CC(C)C(CN(C)Cc2ccc4c(c2)OCO4)O3)cc1 (stereo not shown); test = kinase activity, KinaseProfiler; conditions = 0.03 µM, species human; scale = baseline: control; measurement = remaining activity; value = 90%
SMILES = CNC1C[S+]2CC[S+]3CC[S+](C1)[Ru-4]321([N]=C=S)[n]2c3ccc(OC)cc3c3c4c(c5cc(F)c[n+]1c5c32)C(=O)NC4=O (stereo not shown); test = KinomeScan; conditions = 0.1 µM; scale = baseline: untreated; measurement = remaining binding; value = 100%
SMILES = C=CC(=O)N1CCc2ccc(-n3c(=O)ccc4cnc5ccc(-c6cnn(C)c6)cc5c43)cc21; test = KINOMEscan; conditions = 1 µM; scale = baseline: DMSO control; measurement = remaining binding; value = 94%
SMILES = COc1cc(Nc2nc(C)cc(-c3cnn4nc(OC)ccc34)n2)cc(C(F)(F)F)c1; test = inhibitor; conditions = 1 µM, DCAMKL2; scale = baseline: control; measurement = remaining activity; value = 84%

For quick reference, copied from above:
SMILES = CCN1CCN(Cc2ccc(C(=O)Nc3ccc(C)c(NCc4cnc5[nH]ccc5c4OC)c3)cc2C(F)(F)F)CC1; test = binding, competition with immobilised ligand; conditions = 1 µM; measurement = remaining binding; value = 100%
